Assay results pooled from the literature.
Parts stem from different laboratories: compare values within a part only. pIC50, pKd: −log10 of the molar value.

Protein sequences, listed by entry. Tags and fused reporters are not part of them. Residues count along the entry.
UniProt Q9JKC1, 24-597 limits assumed: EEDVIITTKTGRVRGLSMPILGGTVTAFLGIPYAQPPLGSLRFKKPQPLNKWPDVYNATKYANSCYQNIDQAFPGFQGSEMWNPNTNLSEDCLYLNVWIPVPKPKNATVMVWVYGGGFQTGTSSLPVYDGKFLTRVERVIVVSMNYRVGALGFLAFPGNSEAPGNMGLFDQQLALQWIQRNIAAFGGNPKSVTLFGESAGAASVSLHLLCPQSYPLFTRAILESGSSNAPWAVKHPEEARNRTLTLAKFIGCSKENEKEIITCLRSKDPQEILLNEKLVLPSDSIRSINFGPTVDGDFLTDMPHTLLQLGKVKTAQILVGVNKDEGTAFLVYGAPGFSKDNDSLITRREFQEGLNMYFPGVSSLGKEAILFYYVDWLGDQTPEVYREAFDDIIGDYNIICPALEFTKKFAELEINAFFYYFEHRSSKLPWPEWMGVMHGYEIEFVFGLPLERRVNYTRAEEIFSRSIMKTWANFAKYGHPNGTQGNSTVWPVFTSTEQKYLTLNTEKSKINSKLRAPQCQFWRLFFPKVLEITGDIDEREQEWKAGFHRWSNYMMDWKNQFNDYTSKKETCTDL

Sample 1
Organism: SARS-CoV-2
Cells: Vero
Concentration: 1 µM
The viral titre of Cc1nn(-c2ccc(Cl)cc2)c2c1C(c1cc(Cl)ccc1Cl)C(C#N)=C(N)O2 (centres unmarked) is reported as 815000 IU/mL.
CCOc1ccc(C2C(C#N)=C(N)Oc3c2c(C)nn3-c2ccc(Cl)cc2)cc1 (centres unmarked) gave a viral titre of 834000 IU/mL.
The viral titre of Cc1nn(-c2ccc(Cl)cc2)c2c1C(c1ccc(O)cc1)C(C#N)=C(N)O2 (centres unmarked) is reported as 667000 IU/mL.
COc1cc(C2C(C#N)=C(N)Oc3c2c(C)nn3-c2ccc(Cl)cc2)ccc1O (centres unmarked) has a viral titre of 809000 IU/mL.

Mixed results
CCC(CC)O[C@@H]1C=C(C(=O)O)C[C@H](N)[C@H]1NC(C)=O gave a pIC50 of 8.73 (Neuraminidase (Influenza A virus, UniProt A0A024E3Q2); neuraminidase activity).
The pIC50 of C[C@H](NC(=O)[C@H](c1cccnc1)N(C(=O)CC#N)c1ccc(-c2ccccc2)cc1)c1ccccc1 is reported as less than 4.70 (Replicase polyprotein 1ab, main protease (rep, Severe acute respiratory syndrome coronavirus 2, UniProt P0DTD1); enzyme activity, inhibitor).
For CC[C@H](C)[C@H]1O[C@]2(C=C[C@@H]1C)C[C@@H]1C[C@@H](C/C=C(\C)[C@@H](O[C@H]3C[C@H](OC)[C@@H](O[C@H]4C[C@H](OC)[C@@H](O)[C@H](C)O4)[C@H](C)O3)[C@@H](C)/C=C/C=C3\CO[C@@H]4[C@H](O)C(C)=C[C@@H](C(=O)O1)[C@]34O)O2, the pKd was 4.62 (Spike glycoprotein (Severe acute respiratory syndrome coronavirus 2, UniProt P0DTC2); biolayer interferometry; screening).
The pIC50 of COP(=O)(OC)Oc1ccc([N+](=O)[O-])cc1Cl is reported as 7.24 (Bche (Rattus norvegicus, UniProt Q9JKC1); inhibitor; rat, postnatal day 1, rat serum).

For quick reference, copied from above (sample 1):
The viral titre of Cc1nn(-c2ccc(Cl)cc2)c2c1C(c1cc(Cl)ccc1Cl)C(C#N)=C(N)O2 (centres unmarked) is reported as 815000 IU/mL.
